Published values from different studies.
Protocols differ between the studies behind these lines. ± marks the error that the study gave.

Cc1sc2ncn(CC(=O)N3CCCC3)c(=O)c2c1-c1cccc(Br)c1  open probability increase (NMDA receptor mouse; single-channel outside-out recording; cultured cortical neurons; 50 µM; baseline: vehicle): 4.4 fold
CCCNCC(=O)O  apparent binding constant (DNA; UV-vis absorption titration; pH 7.4, room temperature): 1.11 mM⁻¹
CC[C@H](C)[C@H](NC(=O)[C@H](Cc1ccccc1)NC(=O)[C@@H](NC(=O)[C@@H](NC(=O)[C@H](CC(C)C)NC(=O)[C@H](CCCCN)NC(=O)[C@@H](N)CCCCN)[C@@H](C)CC)[C@@H](C)O)C(=O)N[C@@H](CC(C)C)C(=O)N[C@@H](CCCNC(=N)N)C(=O)N[C@@H](CCCNC(=N)N)C(=O)N[C@H](C(=O)N[C@@H](CCCNC(=N)N)C(=O)N[C@@H](CCC(=O)O)C(=O)N[C@@H](CCCCN)C(=O)N[C@@H](CCCCN)C(=O)N[C@@H](CCCCN)C(=O)N[C@@H](CCC(=O)O)C(=O)N[C@@H](CS)C(=O)N[C@@H](CC(C)C)C(=O)N[C@H](C(=O)O)C(C)C)[C@@H](C)O  rate constant kOI (voltage-gated sodium channel; resurgent sodium current, kinetic model fit; mouse CA3 neurons; 200 µM, membrane potential -30 mV): 68 s⁻¹
Cn1c(=O)oc2ccc(-c3ccc(CC(C#N)NC(=O)C4CNCCCO4)c(F)c3)cc21 (stereo not drawn)  maximal reduction (neutrophil elastase (human); neutrophil-normalised activity; human, whole blood; 40 mg once daily, day 28): 76.4%
COc1ccc(N2C(=O)C=CC2=O)cc1  DPP3 expression (DPP3 (Candida albicans); GFP fluorescence; Candida albicans, BWP17 DPP3-GFP; 0.5 µg/mL, 4 h; baseline: untreated): 1.66 fold
CC1OC(Oc2c(-c3ccc(O)cc3)oc3cc(O)cc(O)c3c2=O)C(OC(=O)C=Cc2ccc(O)cc2)C(O)C1OC(=O)C=Cc1ccc(O)cc1 (stereo not drawn)  binding affinity loss (CCR2 N199A; CHO-K1; concentration not given; baseline: wild type over N199A): 2 fold
COC(=O)C=CCCC(NC(=O)c1ccncc1C(=O)O)C(=O)NC(C(=O)N1CC(=O)CC1C(=O)NC(C(=O)NC(C(N)=O)C1CCCCC1)C1CCCCC1)C(C)(C)C (stereo not drawn)  inhibition (factor XIII, rabbit; isopeptidase activity; rabbit, plasma; intravenous bolus plus infusion, dose not given): > 95%
Cc1ccc(-n2nc(C3CC3)nc2C2CCCN(C(N)=O)C2)cc1C (stereo not drawn)  Soret peak red shift (recombinant aromatase CYP19; absorption spectroscopy; 100 µM, no androstenedione; baseline: 416 nm): 4 nm
CC[C@H](C)[C@H](NC(=O)[C@H](C)NC(=O)[C@@H](NC(=O)[C@@H](NC(=O)[C@H](CC(C)C)NC(=O)[C@H](CCCCN)NC(=O)[C@@H](N)CCCCN)[C@@H](C)CC)[C@@H](C)O)C(=O)N[C@@H](CC(C)C)C(=O)N[C@@H](CCCCN)C(=O)N[C@@H](CCCCN)C(=O)N[C@H](C(=O)N[C@@H](CCCNC(=N)N)C(=O)N[C@@H](CCC(=O)O)C(=O)N[C@@H](CCCCN)C(=O)N[C@@H](CCCCN)C(=O)N[C@@H](CCCCN)C(=O)N[C@@H](CCC(=O)O)C(=O)N[C@@H](CS)C(=O)N[C@@H](CC(C)C)C(=O)N[C@H](C(=O)O)C(C)C)[C@@H](C)O  rate constant kIO (voltage-gated sodium channel; resurgent sodium current, kinetic model fit; mouse CA3 neurons; 200 µM, membrane potential -30 mV): 10 s⁻¹
O=C(c1ccc(F)cc1)N1CCCC(c2nc(-c3cccnc3)no2)C1 (stereo not drawn)  EC50 (mGluR5; calcium fluorescence, positive allosteric modulator; mGluR5-expressing cells; added: glutamate EC20): 5 ± 0.807 µM
CC[C@H](C)[C@H](NC(=O)[C@H](CC(C)C)NC(=O)[C@H](CCCCN)NC(=O)[C@@H](N)CCCCN)C(=O)N[C@H](C(=O)N[C@@H](Cc1ccccc1)C(=O)N[C@H](C(=O)N1CCC[C@H]1C(=O)N[C@@H](CCCCN)C(=O)N[C@@H](CCCCN)C(=O)N[C@H](C(=O)N[C@@H](CCCNC(=N)N)C(=O)N[C@@H](CCC(=O)O)C(=O)N[C@@H](CCCCN)C(=O)N[C@@H](CCCCN)C(=O)N[C@@H](CCCCN)C(=O)N[C@@H](CCC(=O)O)C(=O)N[C@@H](CS)C(=O)N[C@@H](CC(C)C)C(=O)N[C@H](C(=O)O)C(C)C)[C@@H](C)O)[C@@H](C)CC)[C@@H](C)O  rate constant kOB (voltage-gated sodium channel; resurgent sodium current, kinetic model fit; mouse CA3 neurons; 200 µM, membrane potential -10 mV): 252 s⁻¹
Cc1cc(/C=C/c2ccc(O)c(O)c2)[nH]n1  inhibition (glutathione peroxidase; enzyme activity; MCF7; 25 µM, 48 h): 31%

Excerpt of the above:
Cc1sc2ncn(CC(=O)N3CCCC3)c(=O)c2c1-c1cccc(Br)c1  open probability increase (NMDA receptor mouse; single-channel outside-out recording; cultured cortical neurons; 50 µM; baseline: vehicle): 4.4 fold
CCCNCC(=O)O  apparent binding constant (DNA; UV-vis absorption titration; pH 7.4, room temperature): 1.11 mM⁻¹
